Assay results collected from several papers.
A part holds a random share of what one study measured. ± gives the spread as reported.

Block 1
Organism: SARS-CoV-2 Wuhan spike VSV pseudovirus
Observed: pseudovirus entry
Tested at: concentration not given
| SMILES | inhibition [%] |
| --- | --- |
| CCC(CC)n1ncc(C)c1NC(=O)c1cc(Cl)ccc1C | 40 |
| CC1=CC(C)(C)Nc2ccc(OC(=O)COc3ccccc3Cl)cc21 | 40 |
| Cc1nc(-c2ccc(C)c(-n3cc(C(=O)N4CCN(c5cc(Cl)ccc5C)CC4)c(C)n3)c2)no1 | 38 |
| COc1ccc(C2(C(=O)N3CCC(Cc4nc(-c5ccccc5)no4)CC3)CC2)cc1 | 40 |
| CCS(=O)(=O)N1CSC[C@@H]1C(=O)NCCc1csc(-c2ccccc2)n1 | 39 |
| Cc1ccc(S(=O)(=O)N2CCC(C(=O)Nc3nc4ccccc4s3)CC2)cc1 | 40 |
| COc1ccc2cc3c(N)nn(C(=O)c4ccccc4Cl)c3nc2c1 | 43 |
| CCOC(=O)c1cccc(NC(=O)CCS(=O)(=O)c2ccc(Br)s2)c1 | 39 |
| CC(=O)N1CCCSc2ccc(S(=O)(=O)N3CCC(CN4CCc5ccccc5C4)CC3)cc21 | 42 |
| O=[N+]([O-])c1ccc(S(=O)(=O)c2ccccc2)nc1S(=O)(=O)c1ccccc1 | 40 |
| COc1ccc(CCNc2ncnc3c2oc2ccccc23)cc1OC | 37 |
| Cc1nn(C)c(C)c1CNC(=O)c1ccc(-c2nc(CN3CCN(c4ccccc4)CC3)c(C)o2)cc1 | 40 |
| c1nc(N2CCc3[nH]cnc3C2)c2cc[nH]c2n1 | 43 |
| Cc1sc2nc(CN3CCC(C)CC3)nc(-n3ccnc3)c2c1C | 37 |
| COc1ccc(C(=O)/C=C/Sc2nc3ccccc3o2)cc1 | 36 |

Further values, each from its own experiment
rep nsp12 RdRp: Replicase polyprotein 1ab, nsp12 RdRp (rep, Severe acute respiratory syndrome coronavirus 2, UniProt P0DTD1)
rep nsp14: Replicase polyprotein 1ab, nsp14 (rep, Severe acute respiratory syndrome coronavirus 2, UniProt P0DTD1)
rep papain-like protease: Replicase polyprotein 1ab, papain-like protease (rep, Severe acute respiratory syndrome coronavirus 2, UniProt P0DTD1)
| Molecule | target or system | test | system | setting | scale | endpoint | value |
| --- | --- | --- | --- | --- | --- | --- | --- |
| SLVAVTAAQSTIEEQAKTFLDKHN | SARS-CoV-2 spike RBD | peptide spot array | peptide | concentration not given | relative to: wild-type ACE2 peptide | relative binding | 3.78 |
| NC12CC3CC(CC(C3)O1)C2 | Matrix protein 2 (Influenza A virus, UniProt P0DOF5, V27A) |  |  | concentration not given, pH 5.5, cell-based |  | inhibition | 0% |
| O=c1[nH]cnc2c([C@@H]3N[C@H](CO)[C@@H](O)[C@H]3O)c[nH]c12 | SARS-CoV-2 | viral replication | Vero C1008, Omicron BA.1 | 48 h, reduction of infectious virus |  | EC90 | 2020 ± 70 nM |
| CCC(CC)[C@H](NC(C)=O)[C@@H]1[C@H](O)[C@@H](C(=O)O)C[C@H]1N=C(N)N | neuraminidase (Influenza B virus, UniProt A0A1S5RAG6, G407S) |  |  |  |  | IC50 | 0.7 ± 0.2 nM |
| CCOc1nc2cccc(C(=O)OCc3oc(=O)oc3C)c2n1Cc1ccc(-c2ccccc2-c2noc(=O)[nH]2)cc1 | rep nsp12 RdRp | binding, biolayer interferometry |  | concentration not given |  | BLI response | -0.03 nm |
| CCC(CC)COC(=O)[C@H](C)N[P@](=O)(OC[C@H]1O[C@@](C#N)(c2ccc3c(N)ncnn23)[C@H](O)[C@@H]1O)Oc1ccccc1 | SARS-CoV-2 | viral replication | Calu-3, Gamma |  |  | EC90 | 300 ± 20 nM |
| Cc1ccc(Nc2nccc(N(C)c3ccc4c(C)n(C)nc4c3)n2)cc1S(N)(=O)=O | rep nsp12 RdRp | binding, biolayer interferometry |  | 50 µM |  | BLI response | 0.06 nm |
| CNC12CC3CC(CC(C3)O1)C2 | Matrix protein 2 (Influenza A virus, UniProt P0DOF5, S31N) |  |  | concentration not given, pH 5.5, cell-based |  | inhibition | 0% |
| O=C(NC1CCN(c2ncnc3[nH]cnc23)CC1)c1cccc(S(=O)(=O)N2CCC2)c1 | rep nsp14 | enzyme activity | SARS-CoV-2 |  |  | Hill slope | 12.4 |
| N#C[C@@]1(n2ccc(N)nc2=O)O[C@H](CO)[C@@H](O)[C@H]1O | SARS-CoV-2 | viral replication | Vero, Beta |  |  | EC90 | 3000 ± 200 nM |
| SLVAVTAAQSTIEEQAKHFLDKFN | SARS-CoV-2 spike RBD | peptide spot array | peptide | concentration not given | relative to: wild-type ACE2 peptide | relative binding | 3.01 |
| CN(Cc1cc(Br)cc(Br)c1N)C1CCCCC1 | rep papain-like protease |  |  | concentration not given, C111S mutant | relative to: positive control | activity | 27.5% |
| Nc1nc2c(ncn2[C@@H]2O[C@H](COP(=O)(O)OP(=O)(O)OP(=O)(O)OC[C@H]3O[C@@H](n4cnc5c(=O)[nH]c(N)nc54)[C@H](O)[C@@H]3O)[C@@H](O)[C@H]2O)c(=O)[nH]1 | rep nsp14 | thermal shift |  | 20 µM |  | ΔTm | 0.3 °C |
| Nc1ncnc2c1ncn2[C@@H]1O[C@H](CO)[C@@H](O)[C@@H]1O | SARS-CoV-2 | viral replication | Vero C1008, Omicron BA.1 | 48 h, reduction of infectious virus |  | EC90 | 12600 ± 360 nM |
| O=c1cc(-c2ccc(Oc3c(O)cc4oc(-c5ccc(O)cc5)cc(=O)c4c3O)cc2)oc2cc(O)cc(O)c12 | rep papain-like protease |  |  | concentration not given, C111S mutant | relative to: positive control | activity | 7.88% |

A few entries again (further values, each from its own experiment):
| Molecule | target or system | test | system | setting | scale | endpoint | value |
| --- | --- | --- | --- | --- | --- | --- | --- |
| CCOc1nc2cccc(C(=O)OCc3oc(=O)oc3C)c2n1Cc1ccc(-c2ccccc2-c2noc(=O)[nH]2)cc1 | rep nsp12 RdRp | binding, biolayer interferometry |  | concentration not given |  | BLI response | -0.03 nm |
| CCC(CC)COC(=O)[C@H](C)N[P@](=O)(OC[C@H]1O[C@@](C#N)(c2ccc3c(N)ncnn23)[C@H](O)[C@@H]1O)Oc1ccccc1 | SARS-CoV-2 | viral replication | Calu-3, Gamma |  |  | EC90 | 300 ± 20 nM |
| Cc1ccc(Nc2nccc(N(C)c3ccc4c(C)n(C)nc4c3)n2)cc1S(N)(=O)=O | rep nsp12 RdRp | binding, biolayer interferometry |  | 50 µM |  | BLI response | 0.06 nm |
| CNC12CC3CC(CC(C3)O1)C2 | Matrix protein 2 (Influenza A virus, UniProt P0DOF5, S31N) |  |  | concentration not given, pH 5.5, cell-based |  | inhibition | 0% |
| O=C(NC1CCN(c2ncnc3[nH]cnc23)CC1)c1cccc(S(=O)(=O)N2CCC2)c1 | rep nsp14 | enzyme activity | SARS-CoV-2 |  |  | Hill slope | 12.4 |
